Assay results collected from several papers.
Parts stem from different laboratories: compare values within a part only. Several values in a cell are separate wells, animals, samples, runs or records.
UniProt Q02779, sequence (whole entry, looked up): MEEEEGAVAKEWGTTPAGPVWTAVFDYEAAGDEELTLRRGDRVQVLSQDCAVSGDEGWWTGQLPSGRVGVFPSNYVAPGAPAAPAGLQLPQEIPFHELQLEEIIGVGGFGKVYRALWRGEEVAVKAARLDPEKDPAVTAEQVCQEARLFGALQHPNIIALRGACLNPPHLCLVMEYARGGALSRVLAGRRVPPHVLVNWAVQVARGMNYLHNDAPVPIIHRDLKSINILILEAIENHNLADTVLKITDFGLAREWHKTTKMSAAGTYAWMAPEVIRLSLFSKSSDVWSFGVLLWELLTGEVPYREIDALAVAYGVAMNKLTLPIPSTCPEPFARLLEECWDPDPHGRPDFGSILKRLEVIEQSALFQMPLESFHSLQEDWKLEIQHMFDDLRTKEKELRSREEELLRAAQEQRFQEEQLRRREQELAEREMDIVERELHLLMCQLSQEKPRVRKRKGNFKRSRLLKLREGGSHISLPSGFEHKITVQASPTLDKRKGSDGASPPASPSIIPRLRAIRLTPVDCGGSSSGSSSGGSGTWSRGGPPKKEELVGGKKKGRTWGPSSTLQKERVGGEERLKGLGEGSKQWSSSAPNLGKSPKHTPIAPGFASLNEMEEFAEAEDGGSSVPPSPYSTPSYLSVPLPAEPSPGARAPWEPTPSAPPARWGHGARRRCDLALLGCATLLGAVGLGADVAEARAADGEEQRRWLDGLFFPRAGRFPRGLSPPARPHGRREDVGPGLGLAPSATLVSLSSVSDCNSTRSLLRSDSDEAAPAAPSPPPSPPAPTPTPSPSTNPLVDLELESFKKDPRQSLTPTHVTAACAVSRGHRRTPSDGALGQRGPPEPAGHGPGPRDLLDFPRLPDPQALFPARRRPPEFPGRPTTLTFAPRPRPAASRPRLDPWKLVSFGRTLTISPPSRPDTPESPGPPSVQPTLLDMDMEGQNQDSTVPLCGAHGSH
UniProt Q12851, sequence (whole entry, looked up): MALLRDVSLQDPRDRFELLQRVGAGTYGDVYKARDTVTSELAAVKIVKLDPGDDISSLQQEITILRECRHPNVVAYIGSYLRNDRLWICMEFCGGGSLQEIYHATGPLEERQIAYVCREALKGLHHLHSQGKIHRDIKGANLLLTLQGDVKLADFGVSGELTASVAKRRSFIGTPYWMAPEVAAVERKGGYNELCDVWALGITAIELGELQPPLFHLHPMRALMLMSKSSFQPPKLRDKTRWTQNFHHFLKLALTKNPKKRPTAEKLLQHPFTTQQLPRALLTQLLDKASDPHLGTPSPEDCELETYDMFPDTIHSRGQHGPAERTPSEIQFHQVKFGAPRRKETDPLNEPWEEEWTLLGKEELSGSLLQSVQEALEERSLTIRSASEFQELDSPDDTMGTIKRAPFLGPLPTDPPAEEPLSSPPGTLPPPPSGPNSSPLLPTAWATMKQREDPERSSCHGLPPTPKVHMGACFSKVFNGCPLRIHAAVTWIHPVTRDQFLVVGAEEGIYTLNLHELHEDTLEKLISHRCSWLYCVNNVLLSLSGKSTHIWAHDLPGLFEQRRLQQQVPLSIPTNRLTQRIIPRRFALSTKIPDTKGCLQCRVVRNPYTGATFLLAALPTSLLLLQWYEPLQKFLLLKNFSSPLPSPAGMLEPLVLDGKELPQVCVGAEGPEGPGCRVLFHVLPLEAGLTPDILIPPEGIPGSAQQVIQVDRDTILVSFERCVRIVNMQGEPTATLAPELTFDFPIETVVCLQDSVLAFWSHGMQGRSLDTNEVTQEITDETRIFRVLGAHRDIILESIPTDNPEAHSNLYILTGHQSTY
UniProt Q13976, sequence (whole entry, looked up): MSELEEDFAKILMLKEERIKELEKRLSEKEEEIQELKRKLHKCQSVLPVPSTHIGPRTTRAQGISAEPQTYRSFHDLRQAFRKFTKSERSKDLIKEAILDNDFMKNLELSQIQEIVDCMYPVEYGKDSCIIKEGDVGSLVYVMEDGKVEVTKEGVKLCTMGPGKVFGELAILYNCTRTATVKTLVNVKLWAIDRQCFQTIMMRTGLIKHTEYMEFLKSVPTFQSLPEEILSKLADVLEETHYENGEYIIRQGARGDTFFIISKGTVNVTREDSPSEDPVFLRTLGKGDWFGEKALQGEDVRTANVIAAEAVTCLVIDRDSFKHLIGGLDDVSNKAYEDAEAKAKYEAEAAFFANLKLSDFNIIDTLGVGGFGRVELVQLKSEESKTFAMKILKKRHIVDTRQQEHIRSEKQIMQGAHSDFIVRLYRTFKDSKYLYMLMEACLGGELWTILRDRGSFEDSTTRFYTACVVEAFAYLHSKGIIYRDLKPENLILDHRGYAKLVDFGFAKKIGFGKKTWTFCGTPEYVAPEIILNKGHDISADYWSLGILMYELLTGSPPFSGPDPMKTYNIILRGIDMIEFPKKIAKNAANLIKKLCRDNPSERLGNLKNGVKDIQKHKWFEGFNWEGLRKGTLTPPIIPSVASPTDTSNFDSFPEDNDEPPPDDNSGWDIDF
UniProt Q05655, sequence (whole entry, looked up): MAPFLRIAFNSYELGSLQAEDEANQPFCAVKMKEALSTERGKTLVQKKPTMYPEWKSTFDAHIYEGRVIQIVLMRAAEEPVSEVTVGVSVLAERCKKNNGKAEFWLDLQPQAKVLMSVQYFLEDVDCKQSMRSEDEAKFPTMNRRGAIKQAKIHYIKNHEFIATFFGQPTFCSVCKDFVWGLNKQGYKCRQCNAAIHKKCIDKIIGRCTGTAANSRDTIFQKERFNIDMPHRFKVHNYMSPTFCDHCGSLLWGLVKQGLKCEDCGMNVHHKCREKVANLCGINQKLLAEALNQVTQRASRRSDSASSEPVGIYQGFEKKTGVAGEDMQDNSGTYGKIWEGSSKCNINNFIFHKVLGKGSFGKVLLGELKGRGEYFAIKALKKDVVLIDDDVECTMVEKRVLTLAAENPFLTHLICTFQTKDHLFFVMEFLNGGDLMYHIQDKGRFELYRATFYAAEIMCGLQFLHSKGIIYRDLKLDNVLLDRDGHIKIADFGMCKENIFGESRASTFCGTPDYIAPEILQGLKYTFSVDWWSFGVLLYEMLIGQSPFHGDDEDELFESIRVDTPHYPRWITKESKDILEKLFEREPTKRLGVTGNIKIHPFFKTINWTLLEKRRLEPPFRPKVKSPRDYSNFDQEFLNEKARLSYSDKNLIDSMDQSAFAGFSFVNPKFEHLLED
UniProt O14757, sequence (whole entry, looked up): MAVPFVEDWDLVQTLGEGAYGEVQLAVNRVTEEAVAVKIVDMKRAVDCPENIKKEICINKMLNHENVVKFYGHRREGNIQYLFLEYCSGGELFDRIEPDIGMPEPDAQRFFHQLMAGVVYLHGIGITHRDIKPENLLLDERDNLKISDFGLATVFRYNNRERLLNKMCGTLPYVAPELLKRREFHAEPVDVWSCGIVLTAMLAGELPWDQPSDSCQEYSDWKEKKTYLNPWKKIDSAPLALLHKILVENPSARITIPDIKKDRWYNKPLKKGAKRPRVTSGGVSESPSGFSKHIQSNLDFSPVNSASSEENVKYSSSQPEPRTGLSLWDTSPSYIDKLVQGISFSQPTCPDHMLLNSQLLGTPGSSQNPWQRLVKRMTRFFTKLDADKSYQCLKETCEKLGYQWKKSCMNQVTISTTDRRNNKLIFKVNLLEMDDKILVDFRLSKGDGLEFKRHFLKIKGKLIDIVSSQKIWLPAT
UniProt P10721, sequence (whole entry, looked up): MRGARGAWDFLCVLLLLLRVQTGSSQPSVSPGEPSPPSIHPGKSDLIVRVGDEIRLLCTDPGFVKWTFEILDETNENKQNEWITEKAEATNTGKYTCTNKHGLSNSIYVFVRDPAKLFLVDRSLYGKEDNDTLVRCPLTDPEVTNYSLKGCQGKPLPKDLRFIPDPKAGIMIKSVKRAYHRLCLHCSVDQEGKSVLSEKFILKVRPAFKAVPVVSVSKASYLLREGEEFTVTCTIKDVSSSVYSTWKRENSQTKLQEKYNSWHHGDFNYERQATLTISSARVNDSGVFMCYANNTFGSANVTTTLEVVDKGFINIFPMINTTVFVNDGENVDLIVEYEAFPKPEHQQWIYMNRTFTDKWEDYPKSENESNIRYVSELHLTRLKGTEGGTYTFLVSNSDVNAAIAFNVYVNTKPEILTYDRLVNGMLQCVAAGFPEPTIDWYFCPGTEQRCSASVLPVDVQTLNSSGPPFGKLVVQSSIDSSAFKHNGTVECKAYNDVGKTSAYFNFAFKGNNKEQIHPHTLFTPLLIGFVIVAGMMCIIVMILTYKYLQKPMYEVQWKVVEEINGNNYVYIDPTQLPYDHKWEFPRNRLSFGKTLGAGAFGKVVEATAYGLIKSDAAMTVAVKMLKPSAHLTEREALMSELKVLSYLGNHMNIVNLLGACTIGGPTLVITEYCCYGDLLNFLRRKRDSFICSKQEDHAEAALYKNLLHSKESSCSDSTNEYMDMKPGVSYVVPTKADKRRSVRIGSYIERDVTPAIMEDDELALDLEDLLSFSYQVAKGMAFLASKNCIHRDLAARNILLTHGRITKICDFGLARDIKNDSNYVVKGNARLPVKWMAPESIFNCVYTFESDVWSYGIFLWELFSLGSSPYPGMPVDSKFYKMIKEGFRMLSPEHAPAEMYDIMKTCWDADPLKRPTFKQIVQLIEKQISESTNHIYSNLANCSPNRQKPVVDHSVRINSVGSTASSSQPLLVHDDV

Series 1
Compound: CC(C)n1cnc(-c2ccc(F)cc2)c1-c1ncc(C(=O)Nc2ccc(N3CCN(C)CC3)cc2)[nH]1
test	system	conditions	patients with TEAE [%]
phase 2a trial	patients with idiopathic pulmonary fibrosis	30 mg once daily, free thyroxine decreased, grade 5	0
phase 2a trial	patients with idiopathic pulmonary fibrosis	30 mg once daily, endocrine disorders SOC, grade 4	0
phase 2a trial	idiopathic pulmonary fibrosis patients	oral, 30 mg once daily, LDL increased, grade 2	0
measured: glutamate dehydrogenase increased	idiopathic pulmonary fibrosis patients	30 mg once daily	0
phase 2a trial	idiopathic pulmonary fibrosis patients	oral, 30 mg once daily, musculoskeletal disorders, grade 2	1
phase 2a trial	idiopathic pulmonary fibrosis patients	oral, 60 mg once daily, musculoskeletal disorders, grade 3	0
phase 2a trial	patients with idiopathic pulmonary fibrosis	30 mg once daily, nervous system disorders SOC, grade 3	0
measured: endocrine disorders	idiopathic pulmonary fibrosis patients	30 mg once daily	0

Series 2 — Compound: CC(=O)c1ccc(N2CCOCC2)cc1O; effect on: enzyme activity; mode: inhibitor; concentration: 0.5 µM; relative to: control
target	remaining activity
Protein kinase C delta type (PRKCD, Homo sapiens, UniProt Q05655)	97.4%
Mast/stem cell growth factor receptor Kit (KIT, Homo sapiens, UniProt P10721)	102%
Mitogen-activated protein kinase kinase kinase kinase 2 (MAP4K2, Homo sapiens, UniProt Q12851)	116%
Mitogen-activated protein kinase kinase kinase 10 (MAP3K10, Homo sapiens, UniProt Q02779)	104%
cGMP-dependent protein kinase 1 (PRKG1, Homo sapiens, UniProt Q13976)	100%
Serine/threonine-protein kinase Chk1 (CHEK1, Homo sapiens, UniProt O14757)	103%

Series 3 — effect on: ligand displacement; concentration: 10 µM
Target: Histamine H3 receptor (HRH3, Homo sapiens, UniProt Q9Y5N1)
UniProt Q9Y5N1, sequence (whole entry, looked up): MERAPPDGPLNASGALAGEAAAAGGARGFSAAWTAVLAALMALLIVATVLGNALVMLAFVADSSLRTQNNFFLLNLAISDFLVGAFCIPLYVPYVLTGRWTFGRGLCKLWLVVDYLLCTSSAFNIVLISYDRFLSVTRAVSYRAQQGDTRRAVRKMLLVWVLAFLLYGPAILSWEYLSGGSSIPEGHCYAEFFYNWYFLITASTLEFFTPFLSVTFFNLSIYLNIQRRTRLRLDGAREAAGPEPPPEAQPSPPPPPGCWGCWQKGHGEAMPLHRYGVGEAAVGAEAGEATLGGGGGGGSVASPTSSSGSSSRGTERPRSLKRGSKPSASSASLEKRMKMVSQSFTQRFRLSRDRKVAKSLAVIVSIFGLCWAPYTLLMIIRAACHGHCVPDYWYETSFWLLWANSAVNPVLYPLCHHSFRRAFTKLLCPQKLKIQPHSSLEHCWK
SMILES	inhibition [%]
Nc1nc(NCc2ccccc2)nc(-c2ccccc2CO)n1	-1.93
Nc1nc(NCc2ccccc2)nc(-c2cccc(CO)c2)n1	-9.05
CN1CCN(C(=O)C(C)(C)c2ccc(C(=O)Nc3cn4cc(-c5cc(C(C)(C)C)cc(C(C)(C)C)c5)ccc4n3)cc2)CC1	43.8
CCC(F)(F)c1cc(N2CCC(S(C)(=O)=O)CC2)nc2sc(C(N)=O)c(N)c12	0.2
C[C@@H](c1cccc(C#N)c1)n1cc(Cl)cc(C(N)=O)c1=N	-16.5
CN(C)C(=O)c1sc2nc(N3CCC(S(C)(=O)=O)CC3)cc(C(F)(F)F)c2c1N	-1.1
Cc1ncc(-c2cc(Cl)ccc2F)cc1-n1c(=O)n(CC(N)=O)c2ccccc21	-8.16
c1ccc(N2CCN(Cc3nc4ccccc4[nH]3)CC2)nc1	6.03
CN(C)CC#Cc1ccc(OCCCc2sc(N3CCc4cccc(C(=O)Nc5nc6ccccc6s5)c4C3)nc2C(=O)O)c(F)c1	53.3
CN(C)c1ncnc(-c2ccc3nc(Nc4cc(CN5CCN(C(=O)CC(F)(F)F)CC5)ccn4)[nH]c3c2)c1Cl	4.68
CO[C@H]1CC[C@H](CNc2ccc(S(=O)(=O)NC(=O)c3ccc(N4CCN(CC5=C(c6ccc(Cl)cc6)CC(C)(C)CC5)CC4)cc3Oc3cnc4[nH]ccc4c3)cc2[N+](=O)[O-])CC1	4.97
Cn1nc(C(=O)NCc2ccc(C(=O)O)cc2)cc1-c1ccc2[nH]ccc2c1	-4.12
CS(=O)(=O)N1CCCC(NC(=O)[C@H](CCC2CCCCC2)NC(=O)c2ccc(CNC(=O)c3cnc4ccccn34)cc2)C1 (stereo partly shown)	0.32

Single results of other studies
SMILES	cell line	conditions	measurement	result
O=C1CCC(N2Cc3cc(C4CCN(Cc5ccccc5)CC4)ccc3C2=O)C(=O)N1 (stereo not shown)	Jurkat	10 nM, 24 h, together with: CD3/CD28 beads, 1:4	IL-2 level	126 pg/mL and 130 pg/mL and 132 pg/mL

For quick reference, copied from above (series 1):
test	system	conditions	patients with TEAE [%]
phase 2a trial	idiopathic pulmonary fibrosis patients	oral, 30 mg once daily, LDL increased, grade 2	0
phase 2a trial	patients with idiopathic pulmonary fibrosis	30 mg once daily, endocrine disorders SOC, grade 4	0
measured: endocrine disorders	idiopathic pulmonary fibrosis patients	30 mg once daily	0
